Results of several laboratories.
Parts stem from different laboratories: compare values within a part only. Changes are numbered by the printed parent chain.

Series 1
Target: ABI1, truncated, D143A, DHFR fusion (Arabidopsis thaliana)
Method: DHFR PCA, deep sequencing
Medium: yeast
Setting: methotrexate growth selection, single substitutions
Together with: (+)-ABA 4.8 µM
Relative to: wild-type fitted maximum
Direction: higher = stronger binding
Parent: PYL1, truncated, DHFR fusion (Arabidopsis thaliana); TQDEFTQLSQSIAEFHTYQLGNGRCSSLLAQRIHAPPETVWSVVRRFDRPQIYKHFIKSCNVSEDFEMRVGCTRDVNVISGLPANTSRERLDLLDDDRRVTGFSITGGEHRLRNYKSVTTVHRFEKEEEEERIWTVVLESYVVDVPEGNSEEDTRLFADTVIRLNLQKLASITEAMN; partner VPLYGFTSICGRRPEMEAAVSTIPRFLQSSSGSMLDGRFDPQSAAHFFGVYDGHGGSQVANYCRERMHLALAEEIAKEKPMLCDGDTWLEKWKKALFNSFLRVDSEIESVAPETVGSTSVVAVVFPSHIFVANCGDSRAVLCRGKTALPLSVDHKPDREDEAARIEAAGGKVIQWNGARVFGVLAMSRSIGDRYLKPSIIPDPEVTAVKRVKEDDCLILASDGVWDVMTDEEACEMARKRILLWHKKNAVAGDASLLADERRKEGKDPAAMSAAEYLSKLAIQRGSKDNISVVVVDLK
| Variant | relative binding score |
| --- | --- |
| R98W | 14.1% |
| N165T | -11.3% |
| V136R | 1.45% |
| T154A | 30.1% |
| M176D | 61.3% |
| V161W | 35.6% |
| R69E | 66.1% |
| S140I | 1.31% |
| E174K | 15.5% |
| V137G | 4.7% |
| T173C | 93.8% |
| I79Y | 67.4% |
| S42K | 73.2% |
| V44S | -4.39% |
| R49D | -0.151% |

Series 2
Target: Histone acetyltransferase KAT6A, winged helix 1, GST fusion (KAT6A, Homo sapiens, UniProt Q92794, residues 1-85)
Method: protein binding microarray
Molecule type: double-stranded DNA, one strand shown
Medium: in vitro
Tested at: not given
Setting: 8-mer, flanks averaged, mean of 2 arrays, mostly near background
Relative to: not given
Direction: higher = stronger binding
Target sequence (chain): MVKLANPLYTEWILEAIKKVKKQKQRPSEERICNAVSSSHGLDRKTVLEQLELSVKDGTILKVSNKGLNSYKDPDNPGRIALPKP
| Strand | E-score |
| --- | --- |
| CTCGCTGA | 0.0609 |
| CACCGCCG | 0.437 |
| GAATTCAA | -0.199 |
| ACCTGTGG | -0.27 |
| CCGCCCCA | 0.096 |
| GAGTACCA | -0.259 |
| AGCTGTCA | -0.32 |
| CTGTCCTC | -0.131 |
| GCACATGC | 0.109 |
| CAGCCCGA | -0.0237 |
| TCAAATAA | -0.142 |
| CAAGAGCG | 0.163 |
| GCTCCTTA | -0.0081 |
| GAAGTACC | 0.146 |
| AGCATTAC | -0.112 |
| CCACACAC | -0.0886 |

Series 3
Target: CCNB2, cyclin fold, Cln2 fusion (human)
Method: yeast growth competition, sequencing
Medium: yeast
Setting: weak parent motif
Relative to: not given
Direction: higher = stronger binding
Parent: TICRR docking peptide (human); TKVRRNLFNQELL
| Variant | normalised enrichment score |
| --- | --- |
| R5K | 0.601 |
| R4A | -0.0704 |
| E11A | 0.512 |
| K2A | 1.47 |
| L12A | 0.0557 |
| T1A | 0.586 |
| N6A | 0.52 |

Series 4
Target: JUN, bZIP domain (human)
Method: DHFR protein complementation
Medium: yeast
Setting: single substitutions, most at no-binding floor
Relative to: wild-type JUN-FOS pair
Direction: higher = stronger binding
Parent: JUN, bZIP domain (human); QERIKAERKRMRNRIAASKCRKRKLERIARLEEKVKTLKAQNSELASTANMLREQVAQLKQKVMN; partner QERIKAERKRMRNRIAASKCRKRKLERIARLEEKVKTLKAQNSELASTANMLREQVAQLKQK
| Variant | binding fitness [natural log] |
| --- | --- |
| I28V | -0.428 |
| Q55W | -1.05 |
| A49H | -1 |
| S43N | -0.195 |
| Q41V | -0.444 |
| T48D | -0.44 |
| E54I | -0.417 |
| V56Q | -0.962 |
| M51K | -0.155 |
| L59W | -0.751 |
| A29H | -0.242 |
| K34I | -0.153 |
| K36R | -0.109 |
| K39N | -0.391 |

Series 5
Target: RNA binding protein fox-1 homolog 2, RRM domain, GST-SBP tag (RBFOX2, Homo sapiens, UniProt O43251-10, residues 100-194)
Method: RNA Bind-n-Seq
Molecule type: RNA
Medium: in vitro
Tested at: 365 nM
Setting: natural RNA segment, single round, ends assumed
Relative to: no-protein control
Direction: higher = stronger binding
Constant ends, left off below: GGGAGUUCUACAGUCCGACGAUC … UGGAAUUCUCGGGUGCCAA
Residues (chain): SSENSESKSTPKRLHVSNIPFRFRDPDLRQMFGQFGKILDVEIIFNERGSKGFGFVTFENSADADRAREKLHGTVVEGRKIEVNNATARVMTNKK
| Strand | RBNS enrichment (R) |
| --- | --- |
| GACAUAGUGCAGACCUUGUAAAGCAAGAGUAGCUGGCAUCUCUUAAGUCACUGAUGCCAUUUCAUACAGGUGCUAGCUGUCUUUCUGUGGUUUGAAGGAAAGUUAUUGUC | 1.02 |
| UAUUCUUUAUAUAAGGUGGGCAUCAAGCAACCAGAAGUGCAAACUUCCCUCCCUUUACUUCUGUUGCCUUGUGUAUAAAACUGCCCCCAGCUUGCCUAGAGACGUUGCCU | 0.809 |
| UUUUUUUCCCCUCGAGAUGGAGUCUUGCUCUGUUGCCCAGGCUGGAGUGCAGUGGCAUGAUCUCAGCCACUGCAACCUCUGCCUCCCGGGUUCAAGCGAUUCUUCUGCCU | 0.744 |
| CUAUGAAGCCAGCUGACAGAAGCAUCACAUGUCUUGGGCUGAUGCCGCUACCCGGUUCAUUUAUUUGCAAUUUGAGCCAUUUAAAGACCAAUAAAAUUCCUUUUCUAUAA | 0.914 |
| CCAAUACUACUGUGUGUACCAAGUGUGGAGGGGCUGGUCACAUUGCUUCUGAUUGCAAAUUUCAGAGGCCUGGCGACCCUCAGUCAGCUCAGGAUAAAGCACGGAUGGAU | 0.346 |
| GAAACCCAGCGCGCAGUUCUCUUCUGUCAGCUUGUUUUUUUUAGAGUAAAAGGAAGAGAAAUAAAAGUUCAUGAGCUGUCUGGUCAUUGGGAUUAGGAAGCAGGUGUGGG | 0.721 |
| GCCAGGCAUGGAGGCACAUGCCUAUAAUCCCAGCUACUCGGGAGGCUGAGGUAGGAGAAUCGCUUGAAUCCGGGAGCUGGAGGUUGCAGUGAGCCAAGAUCGCACCAUUG | 1.4 |
| ACAGCAGCAAGUGCCCUUCUCCGGCCUGCAGCCUCCCCCAGGGUGGAAGCCGUGGGGUCCCUCAGGCCUGGGCGGUGCAGCUUCCAGAGAGCGAGCGCCCUUUAGCGGCC | 0.157 |

Series 6
Target: BIRC6 UBC core domain (UniProt Q9NR09)
Method: yeast two-hybrid
Medium: yeast
Setting: mostly zero background
Relative to: not given
Direction: higher = stronger interaction
B1: RNF186 RING domain (UniProt Q9NXI6); chain HSGSTECDLECLVCREPYSCPRLPKLLACQHAFCAICLKLLLCVQDNTWSITCPLCRKVTAVPGGLI
B2: MARCHF1 RING domain (UniProt Q8TCQ1); chain TAPRSQSRLSVCPSTQDICRICHCEGDEESPLITPCRCTGTLRFVHQSCLHQWIKSSDTRCCELCKYDFIMETKLKPLRKWE
B3: BFAR RING domain (UniProt Q9NZS9); chain GPQISVSEFSCHCCYDILVNPTTLNCGHSFCRHCLALWWASSKKTECPECREKWEGFPKVS
B4: TRIM41 RING domain (UniProt Q8WV44); chain PVQTLQEEAVCAICLDYFTDPVSIGCGHNFCRVCVTQLWGGEDEEDRDELDREEEEEDGEEE
B5: NFX1 RING domain (UniProt Q12986); chain IEQLTTEKYECMVCCELVRVTAPVWSCQSCYHVFHLNCIKKWARSPASQADGQSGWRCPACQNVSAHVPNTY
B6: RUFY1 RING domain (UniProt Q96T51); chain QALKGHAWLKDDEATHCRQCEKEFSISRRKHHCRNCGHIFCNTCSSNELALPSYPKPVRVCDSCHTLLLQRCSSTAS
B7: VPS8 RING domain (UniProt Q8N3P4); chain TRGLNPKQDYCSICLQQYKRRQEMADEIIVFSCGHLYHSFCLQNKECTVEFEGQTRWTCYKCSSSNKVGKLSE
Target sequence (chain): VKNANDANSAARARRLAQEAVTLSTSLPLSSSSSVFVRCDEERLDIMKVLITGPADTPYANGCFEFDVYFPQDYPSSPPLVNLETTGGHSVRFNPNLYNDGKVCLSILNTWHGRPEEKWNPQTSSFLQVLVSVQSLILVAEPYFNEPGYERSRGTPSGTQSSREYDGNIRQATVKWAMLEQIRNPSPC
| Molecule | lacZ reporter activity |
| --- | --- |
| B1 (RNF186 RING domain) | 0 |
| B2 (MARCHF1 RING domain) | 0 |
| B3 (BFAR RING domain) | 0 |
| LEALSSDFLACKICLEQLRAPKTLPCLHTYCQDCLAQLADGGRVRCPECRETVPVPPEGV (TRIM56 RING domain (UniProt Q9BRZ2)) | 0 |
| B4 (TRIM41 RING domain) | 0 |
| B5 (NFX1 RING domain) | 0 |
| EIKEYKARLTCPCCNTRKKDAVLTKCFHVFCFECVRGRYEARQRKCPKCNAAFGAHDFHR (RNF40 RING domain (UniProt O75150)) | 0 |
| B6 (RUFY1 RING domain) | 0 |
| B7 (VPS8 RING domain) | 0 |
| FAEQPSVKLCCQLCCSVFKDPVITTCGHTFCRRCALKSEKCPVDNVKLTVVVNNI (TRAF7 RING domain (UniProt Q6Q0C0)) | 0 |
| ASPKIFQKTKCSICNSALELPSVHFLCGHSFHQHCFESYSESDADCPTCLPENRKVMDMI (VPS11 RING domain (UniProt Q9H270)) | 0 |

Repeated from above (series 6):
| Molecule | lacZ reporter activity |
| --- | --- |
| B1 (RNF186 RING domain) | 0 |
| B2 (MARCHF1 RING domain) | 0 |
| B3 (BFAR RING domain) | 0 |
| LEALSSDFLACKICLEQLRAPKTLPCLHTYCQDCLAQLADGGRVRCPECRETVPVPPEGV (TRIM56 RING domain (UniProt Q9BRZ2)) | 0 |
| B4 (TRIM41 RING domain) | 0 |
| B5 (NFX1 RING domain) | 0 |
| EIKEYKARLTCPCCNTRKKDAVLTKCFHVFCFECVRGRYEARQRKCPKCNAAFGAHDFHR (RNF40 RING domain (UniProt O75150)) | 0 |
